Published values pooled from the literature.
Numbered parts are unrelated; each lists some results of a single study.

Study 1
Target: Interferon regulatory factor 7, full length, phosphomimetic (IRF7, Homo sapiens, UniProt Q92985, residues 1-503, S471D/S472D/S475D/S476D/S477D/S483D/S484D/S487D)
Method: protein-binding microarray
Molecule type: double-stranded DNA, one strand shown
Medium: in vitro
Concentration: 2200 nM top
Notes: 60-bp whole probe
Together with: salmon DNA 0.4 mg/ml
Reference: random background probes
Reading: higher = stronger binding
All sequences stand within: GCCTAGCAC … GTCTTGATTCGCTTGACGCTGCTG
Residues (chain): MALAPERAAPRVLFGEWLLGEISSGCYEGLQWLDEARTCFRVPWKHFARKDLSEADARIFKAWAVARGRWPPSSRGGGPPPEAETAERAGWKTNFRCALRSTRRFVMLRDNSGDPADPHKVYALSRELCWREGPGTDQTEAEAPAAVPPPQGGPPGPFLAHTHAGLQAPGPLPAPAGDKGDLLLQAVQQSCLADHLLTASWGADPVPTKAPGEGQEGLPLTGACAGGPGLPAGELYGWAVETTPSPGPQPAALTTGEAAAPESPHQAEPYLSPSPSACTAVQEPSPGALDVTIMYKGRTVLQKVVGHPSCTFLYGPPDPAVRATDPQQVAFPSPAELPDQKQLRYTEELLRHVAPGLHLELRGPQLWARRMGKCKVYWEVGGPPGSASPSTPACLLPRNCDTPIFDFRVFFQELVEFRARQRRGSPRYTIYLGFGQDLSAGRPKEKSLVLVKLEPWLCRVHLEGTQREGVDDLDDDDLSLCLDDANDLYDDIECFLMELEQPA
Oligonucleotide	fitted relative affinity [z-score]
GACGATATCAAACTGGAGACGTGCTAG	-0.268
GACGAACTGGGACTGGAGACGTGCTAG	-0.321
GACGGACTGCTACTGCTGTCGTGCTAG	0.0621
GACGAACTGAGAGTGGAGACGTGCTAG	-0.364
GACAATATCGGGTTTCGAGACGTGCTA	1.8
GGTTTTCTAATGTTTTTTAAAGTGCTA	1.45
TTAGGTATCCTCCTCCTTTAGTGCTAG	1.28
GACGATATCACACTGGAGACGTGCTAG	0.325
GACGATCTCAGTATCGAGCCGTGCTAG	0.0836
TTCGAACTGGGGACTGGATTAGTGCTA	-0.0664
GACGGTATCGGTATCGGCACGTGCTAG	0.432
GACGAGATCAGTATCGAGACGTGCTAG	0.329
GACGGTATCGACACTGGGGAAGTGCTA	-0.534
GACGATATCGGGTATCGACACGTGCTA	0.441

Study 2
Target: Histone acetyltransferase KAT6A, winged helix 2, GST fusion (KAT6A, Homo sapiens, UniProt Q92794, residues 85-181)
Method: protein binding microarray
Molecule type: double-stranded DNA, one strand shown
Medium: in vitro
Concentration: not given
Notes: 8-mer, flanks averaged, mean of 2 arrays, mostly near background
Reference: not given
Reading: higher = stronger binding
Target sequence (chain): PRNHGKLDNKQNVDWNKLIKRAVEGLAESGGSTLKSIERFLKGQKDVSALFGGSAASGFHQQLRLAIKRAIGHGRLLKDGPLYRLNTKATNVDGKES
Oligonucleotide	E-score
GAGAGTAA	0.128
ATATTGCC	-0.0587
CAACACAC	-0.0738
GTACGTCA	-0.266
ACCATAAG	-0.179
ATATTAGA	0.0352
AGATATGA	0.124
AATAGGGG	-0.125
GGCGTCCC	0.109

Study 3
Target: Ras GTPase-activating protein-binding protein 1, full length (G3BP1, Homo sapiens, UniProt Q13283)
UniProt Q13283, sequence (whole entry, looked up): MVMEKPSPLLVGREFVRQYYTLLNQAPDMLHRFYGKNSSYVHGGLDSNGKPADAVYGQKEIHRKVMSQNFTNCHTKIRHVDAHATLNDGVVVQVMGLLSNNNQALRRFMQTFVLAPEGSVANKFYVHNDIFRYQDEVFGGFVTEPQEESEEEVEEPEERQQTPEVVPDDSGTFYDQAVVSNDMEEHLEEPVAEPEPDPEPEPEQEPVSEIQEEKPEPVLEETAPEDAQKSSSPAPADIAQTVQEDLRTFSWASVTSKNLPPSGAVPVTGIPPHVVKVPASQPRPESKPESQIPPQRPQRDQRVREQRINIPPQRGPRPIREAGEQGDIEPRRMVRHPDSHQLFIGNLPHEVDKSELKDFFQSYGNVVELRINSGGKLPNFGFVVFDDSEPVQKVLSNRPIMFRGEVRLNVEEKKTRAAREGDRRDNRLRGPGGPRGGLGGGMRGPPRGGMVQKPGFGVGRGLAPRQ
Method: RNA Bind-n-Seq
Molecule type: RNA
Medium: in vitro
Concentration: 200 nM
Notes: whole 134-nt RNA, ends assumed
Together with: 150 mM LiCl
Reference: input library
Reading: higher = stronger binding
All molecules: 7-deaza-guanosine replaces G
All sequences stand within: GGGAGUUCUACAGUCCGACGAUC … UGGAAUUCUCGGGUGUCAAGG
Oligonucleotide	log2 enrichment
CACAGACAACACGCUCCCACACAGACACAGAGGGAAGGGGUUGGGAUGGGGACAGGGUGCACAGCAGGGCGGGGUAGGACCCCAGCCCCU	0.78
CCUGUGCUACACAUCGUAUGUACCGAAUCGGGGCCCCCCGGGCCCCCCGGGCCCCCCGGGGAAAGUAUUAUGUUACGCCGUUCGGAUCUG	-0.796
CCUGUGCUACACAUCGUAUGUACCGAAUCGGGGUUUUUUUGGGGAAAGGGGUUUUUGGGGAAAGUAUUAUGUUACGCCGUUCGGAUCUGC	-0.00197
UUAUUCUGUGUGACACCUGCCCUCGUGCCUACCACCUCGUCUGCCUUGAUCCUGAGCUUGACCGGGCUCCAGAGGGCAAAUGGAGCUGCC	1.21
CAAGUCCUGUGCUACACAUCGUAUGUACCGAAUCGGGUUUGGGGUUUGGGUUUGGGAAAGUAUUAUGUUACGCCGUUCGGAUCUGCACUU	-0.933
CCUCAAGUCCUGUGCUACACAUCGUAUGUACCGAAUCGGAAGGAAGGGAAGGAAAGUAUUAUGUUACGCCGUUCGGAUCUGCACUUCCAG	-0.167

Further values, each from its own experiment
Molecule	target	test	test system	conditions	how to read	quantity	result
PhoQ, residues 284 288 289 292 302 303 SLKLQV	PhoP, residues 12 14 15 18 19 NQFFI (Escherichia coli, UniProt P23836)	Sort-seq, measured: YFP reporter	E. coli	PhoQ-PhoP variant library, together with: 10 µM Mg2+	reference: high Mg2+ state, higher = stronger signaling	fold induction	9.02

Repeated from above (study 2):
Oligonucleotide	E-score
ATATTAGA	0.0352
AGATATGA	0.124
AATAGGGG	-0.125
